Measurements collected from several papers.
Compare with care: the assays were run in different laboratories. ± gives the spread as reported.
APP: Amyloid-beta precursor protein (APP, Homo sapiens, UniProt P05067)
Chain of UniProt P05067 (whole entry, looked up): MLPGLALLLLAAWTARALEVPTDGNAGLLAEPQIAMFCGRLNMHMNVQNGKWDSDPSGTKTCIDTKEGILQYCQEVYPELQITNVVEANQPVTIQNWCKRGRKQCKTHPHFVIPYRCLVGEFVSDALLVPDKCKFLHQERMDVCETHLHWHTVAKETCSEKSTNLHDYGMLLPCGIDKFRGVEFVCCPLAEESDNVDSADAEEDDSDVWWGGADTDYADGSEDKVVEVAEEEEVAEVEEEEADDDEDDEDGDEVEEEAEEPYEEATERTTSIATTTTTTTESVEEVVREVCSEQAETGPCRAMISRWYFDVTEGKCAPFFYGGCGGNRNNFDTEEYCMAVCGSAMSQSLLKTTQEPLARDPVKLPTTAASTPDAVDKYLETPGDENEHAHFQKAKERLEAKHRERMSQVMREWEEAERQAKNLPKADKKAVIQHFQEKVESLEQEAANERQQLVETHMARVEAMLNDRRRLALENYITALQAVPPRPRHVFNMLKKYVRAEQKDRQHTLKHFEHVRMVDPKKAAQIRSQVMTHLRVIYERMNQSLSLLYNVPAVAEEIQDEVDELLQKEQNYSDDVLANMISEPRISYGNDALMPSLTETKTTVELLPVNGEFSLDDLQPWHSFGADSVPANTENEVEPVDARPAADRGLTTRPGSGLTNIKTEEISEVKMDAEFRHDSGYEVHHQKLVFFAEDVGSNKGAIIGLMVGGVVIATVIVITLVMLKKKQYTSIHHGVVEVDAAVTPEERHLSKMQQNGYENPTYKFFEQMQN

For `CC[C@H](C)[C@@H]1NC(=O)[C@H]([C@@H](C)O)NC(=O)[C@H](Cc2ccc(O)cc2)NC(=O)[C@H](CCCNC(=N)N)NC(=O)[C@@H]2CCCN2C(=O)[C@H]2CCCN2C(=O)[C@H]([C@@H](C)O)NC(=O)[C@H](C(C)C)NC(=O)[C@H](C(C)C)NC(=O)[C@H](CCCCN)NC(=O)[C@H](CO)NC(=O)[C@H](CCC(N)=O)NC(=O)[C@H](CO)NC(=O)[C@H](Cc2ccc(O)cc2)NC(=O)[C@H](CO)NC(=O)[C@H](Cc2ccc(O)cc2)NC(=O)[C@@H]2CCCN2C(=O)[C@H](CO)NC(=O)[C@H](CC(C)C)NC(=O)[C@H](CC(C)C)NC(=O)[C@H](C)NC(=O)[C@H](C)NC1=O`, “time to first degradation” read no more than 5 min (Amyloid-beta precursor protein, Aβ40 (APP, Homo sapiens, UniProt P05067); proteolysis by proteinase K, item: amyloid beta; 1.4 µM, 24 h preincubation, 37 °C, together with: 20 µM amyloid beta, proteinase K 0.5 µg/mL).
`COc1ccc(C=CC(=O)C(C)C(=O)C=Cc2ccc(OC)c(OC(F)(F)F)c2)cc1OC(F)(F)F` (stereo not drawn) has a band density of 155 ± 12% (APP; Aβ aggregation, SDS-PAGE western blot, item: Aβ1-42 75-200 kDa band; 30 µM, 24 h, 37 °C, together with: Aβ1-42 10 µM; reference: DMSO).
The inhibition of `CC(C)C[C@H](NC(=O)[C@@H](NC(=O)[C@@H](N)C(C)C)C(C)C)C(=O)N[C@@H](C)C(N)=O` is reported as 16.5% (APP; amyloid aggregation, inhibitor, fluorescence; 4 µM, 24 h).
`CC1=C[C@H](O)CC(C)(C)[C@H]1/C=C/C(C)=C/C=C/C(C)=C/C=C/C=C(C)/C=C/C=C(C)/C=C/C1=C(C)C[C@@H](O)CC1(C)C`: ThT fluorescence “decreased” (APP; amyloid beta aggregation, inhibitor; 100 µM, 3 h, 37 °C; reference: untreated).
The inhibition of `CC[C@H](C)[C@H](NC(=O)[C@@H](NC(=O)[C@@H](N)C(C)C)C(C)C)C(=O)N[C@H](C(N)=O)C(C)C` is reported as 0% (APP; amyloid aggregation, inhibitor, fluorescence; 2 µM, 24 h).
For `CC[C@H](C)[C@H](NC(=O)[C@H](CCSC)NC(=O)[C@H](CCCNC(=N)N)NC(=O)[C@H](Cc1ccc(O)cc1)NC(=O)[C@H](C)NC(=O)[C@H](CCC(N)=O)NC(=O)CNC(=O)[C@H](CCCCN)NC(=O)[C@@H](N)CO)C(=O)O`, the Aβ42 degradation was 12% (Amyloid-beta precursor protein, Aβ42 soluble (APP, Homo sapiens, UniProt P05067); protease, HPLC; 0.2 mM, 7 days, pH 7.4, 37 °C, together with: soluble Aβ42 0.05 mM, HSA 0.025%).
For `O=C(C=Cc1ccc(O)c(OC(F)(F)F)c1)C(CCOCCOCCOCCOC1CCCCO1)C(=O)C=Cc1ccc(O)c(OC(F)(F)F)c1` (stereo not drawn), the band density was 556 ± 58% (APP; Aβ aggregation, SDS-PAGE western blot, item: Aβ1-42 75-200 kDa band; 30 µM, 24 h, 37 °C, together with: Aβ1-42 10 µM; reference: DMSO).
`CC[C@@H](C)[C@@H](NC(=O)[C@@H](N)C(C)C)C(=O)N[C@H](C(=O)N[C@@H](C)C(N)=O)[C@@H](C)CC` gave an inhibition of 65.6% (APP; amyloid aggregation, inhibitor, fluorescence; 2 µM, 24 h).
For `COc1cc(C=CC(=O)CC(=O)C=Cc2cc(C(F)(F)F)cc(C(F)(F)F)c2)ccc1O`, the band density was 217 ± 31% (APP; Aβ aggregation, SDS-PAGE western blot, item: Aβ1-42 75-200 kDa band; 30 µM, 24 h, 37 °C, together with: Aβ1-42 10 µM; reference: DMSO).
`CCCCCC/C=C\CCCCCCCC(=O)O` — result for ThT fluorescence: “decreased” (APP; amyloid beta aggregation, inhibitor; 100 µM, 3 h, 37 °C; reference: untreated).
`COCOc1ccc(C=CC(=O)C(CCC(=O)OC(C)(C)C)C(=O)C=Cc2ccc(OCOC)c(OC(F)(F)F)c2)cc1OC(F)(F)F` (stereo not drawn) has a band density of 457 ± 86% (APP; Aβ aggregation, SDS-PAGE western blot, item: Aβ1-42 75-200 kDa band; 30 µM, 24 h, 37 °C, together with: Aβ1-42 10 µM; reference: DMSO).
The inhibition of `CC[C@H](C)[C@H](NC(=O)[C@@H]1CCCN1C(=O)[C@@H]1CCCN1)C(=O)N[C@@H](C)C(N)=O` is reported as 18.3% (APP; amyloid aggregation, inhibitor, fluorescence; 4 µM, 24 h).

A few entries again:
The inhibition of `CC[C@H](C)[C@H](NC(=O)[C@@H](NC(=O)[C@@H](N)C(C)C)C(C)C)C(=O)N[C@H](C(N)=O)C(C)C` is reported as 0% (APP; amyloid aggregation, inhibitor, fluorescence; 2 µM, 24 h).
